{"data": "Assay results of several laboratories", "CASP7": "Caspase-7 (CASP7, Homo sapiens, UniProt P55210)", "T1": "riboswitch RNA, fused to Pepper aptamer; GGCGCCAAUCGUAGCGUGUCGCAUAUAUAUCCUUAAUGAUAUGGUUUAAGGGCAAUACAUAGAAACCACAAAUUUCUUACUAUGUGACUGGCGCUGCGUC", "note": "Values joined by “and” are separate records of one study, mostly repeats; a detail may differ. ± gives the spread as reported."}
{"Compound": "Nc1nc2c(ncn2[C@@H]2O[C@H](COP(=O)(O)O)[C@@H](O)[C@H]2O)c(=O)[nH]1", "target": "T1, riboswitch RNA, fused to Pepper aptamer", "assay": "fluorescence", "conditions": "5 µM", "quantity": "binding", "value": "binds weakly"}
{"Compound": "O=C(c1cc(-c2ccccc2)n(-c2ccccc2)n1)N(Cc1ccccn1)CC1CCCO1 (centres unmarked)", "target": "Genome polyprotein, NS2B-NS3 protease (dengue virus type 2, UniProt P29990)", "assay": "enzyme activity, fluorogenic AMC substrate", "conditions": "50 µM", "quantity": "inhibition", "value": "17%"}
{"Compound": "CCCCCC(O)/C=C/C=O (centres unmarked)", "target": "CCT5 (Homo sapiens, UniProt P48643)", "assay": "competitive isoTOP-ABPP", "system": "Ramos soluble proteome", "conditions": "100 µM, with: iodoacetamide probe", "scale": "relative to: DMSO over compound-treated, higher = stronger cysteine blockade", "quantity": "isoTOP-ABPP competition ratio", "value": 1.2}
{"Compound": "O=C1c2sc(-c3ccc(N4CCC(F)C4)nc3F)nc2CCN1c1cccnc1 (centres unmarked)", "target": "ADORA2A (Homo sapiens, UniProt P29274)", "assay": "ligand displacement, radioligand", "conditions": "1 µM", "quantity": "inhibition", "value": "6%"}
{"Compound": "O=C(O)Cc1cc2c(cc1C(=O)c1ccc(Cl)cc1Cl)OCO2", "target": "Gria2 (Rattus norvegicus, UniProt P19491)", "assay": "glutamate-evoked current, whole-cell patch clamp", "system": "HEK-293T", "conditions": "concentration not given", "quantity": "current amplitude", "value": "139 ± 9 pA"}
{"Compound": "CC(=O)N[C@@H](CC(C)C)C(=O)N[C@@H](CCC(=O)O)C(=O)N[C@H](C(=O)N[C@@H](CC(=O)O)C(=O)COC(=O)c1c(C)cccc1C)[C@@H](C)O", "target": "CASP7", "assay": "enzyme activity, inhibitor", "quantity": "kinact/KI", "value": "37500 M⁻¹ s⁻¹"}
{"Compound": "CCCCCCCCCCCCCCCC(=O)N[C@@H](CCCCN)C(=O)N[C@@H](CCCCN)C(=O)N[C@@H](CO)C(=O)N[C@@H](CCCNC(=N)N)C(=O)N[C@@H](C)C(=O)N[C@@H](CC(C)C)C(=O)N[C@@H](Cc1ccccc1)C(N)=O", "target": "F2RL3 (Homo sapiens, UniProt Q96RI0)", "assay": "antagonist, ex vivo light transmittance aggregometry", "system": "human, platelet-rich plasma", "conditions": "0.5 mg/kg, 2 h, with: AYPGKF 160 µM", "scale": "relative to: baseline", "quantity": "inhibition of platelet aggregation", "value": "35%"}
{"Compound": "Cc1cc(=O)oc2cc(NC(=O)CCCCCCC(=O)NO)ccc12", "target": "HDAC8 (Homo sapiens, UniProt Q9BY41)", "assay": "ITC", "system": "Tris buffer", "conditions": "pH 7.5", "quantity": "TΔS", "value": "12.6 kJ/mol"}
{"Compound": "CC1CCc2nc(-c3c[nH]nc3-c3ccccc3)ccc2N1 (centres unmarked)", "target": "human kinase panel", "assay": "binding, KINOMEscan", "conditions": "10000 nM, %Ctrl below 10", "quantity": "number of kinases hit", "value": 0}
{"Compound": "CC(=O)N[C@@H](C(=O)N[C@@H](CCCC(=O)O)C(=O)N[C@@H](CCC1CCCCC1)C(=O)N[C@@H](CC(=O)O)C(=O)COC(=O)c1c(C)cccc1C)C1CCCCC1", "target": "CASP7", "assay": "enzyme activity, inhibitor", "quantity": "kinact/KI", "value": "6200 M⁻¹ s⁻¹"}
{"Compound": "CC(C)C(Nc1nccnc1-c1ccccc1)C(=O)NCC1CC1 (centres unmarked)", "target": "human kinase panel", "assay": "binding, KINOMEscan", "conditions": "10000 nM, %Ctrl below 35", "quantity": "number of kinases hit", "value": 1}
{"Compound": "N=C(N)NCCC[C@H](NC(=O)[C@@H]1CCCN1C(=O)[C@H](CCCNC(=N)N)NC(=O)[C@@H]1CCCN1C(=O)[C@H](CCCNC(=N)N)NC(=O)[C@@H]1CCCN1C(=O)[C@H](CCCNC(=N)N)NC(=O)[C@@H]1CCCN1C(=O)[C@H](CCCNC(=N)N)NC(=O)[C@@H]1CCCN1C(=O)[C@H](CCCNC(=N)N)NC(=O)[C@@H]1CCCN1C(=O)[C@H](CCCNC(=N)N)NC(=O)[C@@H]1CCCN1C(=O)[C@H](CCCNC(=N)N)NC(=O)[C@@H]1CCCN1C(=O)[C@H](CCCNC(=N)N)NC(=O)[C@@H]1CCCN1C(=O)[C@H](CCCNC(=N)N)NC(=O)[C@@H]1CCCN1C(=O)[C@H](CCCNC(=N)N)NC(=O)[C@@H]1CCCN1C(=O)[C@H](CCCNC(=N)N)NC(=O)[C@@H]1CCCN1C(=O)[C@H](CCCNC(=N)N)NC(=O)[C@@H]1CCCN1C(=O)[C@H](CCCNC(=N)N)NC(=O)[C@@H]1CCCN1C(=O)[C@H](CCCNC(=N)N)NC(=O)[C@@H]1CCCN1C(=O)[C@H](CCCNC(=N)N)NC(=O)[C@@H]1CCCN1C(=O)[C@H](CCCNC(=N)N)NC(=O)[C@@H]1CCCN1C(=O)[C@H](CCCNC(=N)N)NC(=O)[C@@H]1CCCN1C(=O)[C@H](CCCNC(=N)N)NC(=O)[C@@H]1CCCN1C(=O)[C@H](CCCNC(=N)N)NC(=O)[C@@H]1CCCN1C(=O)[C@H](CCCNC(=N)N)NC(=O)[C@@H]1CCCN1C(=O)[C@H](CCCNC(=N)N)NC(=O)[C@@H]1CCCN1C(=O)[C@H](CCCNC(=N)N)NC(=O)[C@@H]1CCCN1C(=O)[C@H](Cc1ccc(O)cc1)NC(=O)[C@H](CO)NC(=O)CN)C(=O)O", "target": "Nucleophosmin (NPM1, Homo sapiens, UniProt P06748)", "assay": "SANS", "conditions": "0.7 molar excess over NPM1, 25 °C", "quantity": "maximum particle dimension", "value": "171 Å"}
{"Compound": "Nc1ncnc2c1ncn2C1OC(CN(CCCC2CNCc3c2ccc(Cl)c3Cl)CCC(N)C(=O)O)C(O)C1O (mixture of isomers)", "target": "PNMT (Homo sapiens, UniProt P11086)", "assay": "ITC", "conditions": "second site, SAH bound", "quantity": "−TΔS-2", "value": "-67.8 kJ/mol"}
{"Compound": "COc1ccc(C(OCCN2CCCC(C(=O)O)C2)(c2ccc(OC)cc2)c2ccc(OC)cc2)cc1 (centres unmarked)", "target": "SLC6A1 (Homo sapiens, UniProt P30531)", "assay": "GABA transport, inhibitor, radioligand uptake", "system": "HEK293F transfected", "conditions": "160 nM, 15 min pre, 45 min uptake, room temperature, with: [3H]-GABA 30 nM, GABA 25 µM", "scale": "higher = more uptake", "quantity": "[3H]-GABA uptake", "value": "1090 a.u. and 1480 a.u. and 1010 a.u. and 1240 a.u. and 1470 a.u. and 4330 a.u. and 1360 a.u. and 4820 a.u."}
{"note": "A few entries again:"}
{"Compound": "CC(C)C(Nc1nccnc1-c1ccccc1)C(=O)NCC1CC1 (centres unmarked)", "target": "human kinase panel", "assay": "binding, KINOMEscan", "conditions": "10000 nM, %Ctrl below 35", "quantity": "number of kinases hit", "value": 1}
